Measurements pooled from the literature.
Each line is one published result; not all experiments were run side by side. ± gives the spread as reported.
IDE: Insulin-degrading enzyme (IDE, Homo sapiens, UniProt P14735)
Cereblon/Ikaros: Cereblon/Ikaros (Homo sapiens, UniProt Q13422+Q96SW2)
Sequence of UniProt Q13422 (whole entry, looked up): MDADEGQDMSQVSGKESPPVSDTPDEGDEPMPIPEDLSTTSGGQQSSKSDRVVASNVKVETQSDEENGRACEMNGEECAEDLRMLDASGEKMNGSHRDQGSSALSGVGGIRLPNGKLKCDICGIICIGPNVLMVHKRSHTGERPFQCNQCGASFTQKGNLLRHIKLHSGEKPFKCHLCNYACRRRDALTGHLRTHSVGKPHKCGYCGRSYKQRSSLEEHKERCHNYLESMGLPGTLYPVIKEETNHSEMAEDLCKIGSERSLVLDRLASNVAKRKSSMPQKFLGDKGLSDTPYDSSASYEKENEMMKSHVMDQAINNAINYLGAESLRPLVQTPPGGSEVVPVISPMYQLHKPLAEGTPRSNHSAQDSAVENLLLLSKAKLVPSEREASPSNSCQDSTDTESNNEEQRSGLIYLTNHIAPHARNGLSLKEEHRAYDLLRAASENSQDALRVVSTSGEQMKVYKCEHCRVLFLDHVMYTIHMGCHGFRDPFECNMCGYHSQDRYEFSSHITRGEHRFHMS
Sequence of UniProt Q96SW2 (whole entry, looked up): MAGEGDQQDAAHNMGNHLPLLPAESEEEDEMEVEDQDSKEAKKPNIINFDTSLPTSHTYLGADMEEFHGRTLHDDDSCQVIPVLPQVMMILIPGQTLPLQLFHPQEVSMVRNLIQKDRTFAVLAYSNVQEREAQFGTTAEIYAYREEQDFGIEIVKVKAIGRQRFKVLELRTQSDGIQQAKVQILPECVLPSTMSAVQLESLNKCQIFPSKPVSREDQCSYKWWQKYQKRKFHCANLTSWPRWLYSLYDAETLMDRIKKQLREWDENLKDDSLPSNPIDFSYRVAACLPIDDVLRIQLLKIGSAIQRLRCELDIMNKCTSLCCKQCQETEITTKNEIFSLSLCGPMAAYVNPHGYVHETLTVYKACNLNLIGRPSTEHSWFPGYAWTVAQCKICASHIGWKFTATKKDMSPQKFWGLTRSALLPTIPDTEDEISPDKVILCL
USP33 ZnF-UBD domain: Ubiquitin carboxyl-terminal hydrolase 33, ZnF-UBD domain (USP33, Homo sapiens, UniProt Q8TEY7)
Sequence of UniProt Q8TEY7 (whole entry, looked up): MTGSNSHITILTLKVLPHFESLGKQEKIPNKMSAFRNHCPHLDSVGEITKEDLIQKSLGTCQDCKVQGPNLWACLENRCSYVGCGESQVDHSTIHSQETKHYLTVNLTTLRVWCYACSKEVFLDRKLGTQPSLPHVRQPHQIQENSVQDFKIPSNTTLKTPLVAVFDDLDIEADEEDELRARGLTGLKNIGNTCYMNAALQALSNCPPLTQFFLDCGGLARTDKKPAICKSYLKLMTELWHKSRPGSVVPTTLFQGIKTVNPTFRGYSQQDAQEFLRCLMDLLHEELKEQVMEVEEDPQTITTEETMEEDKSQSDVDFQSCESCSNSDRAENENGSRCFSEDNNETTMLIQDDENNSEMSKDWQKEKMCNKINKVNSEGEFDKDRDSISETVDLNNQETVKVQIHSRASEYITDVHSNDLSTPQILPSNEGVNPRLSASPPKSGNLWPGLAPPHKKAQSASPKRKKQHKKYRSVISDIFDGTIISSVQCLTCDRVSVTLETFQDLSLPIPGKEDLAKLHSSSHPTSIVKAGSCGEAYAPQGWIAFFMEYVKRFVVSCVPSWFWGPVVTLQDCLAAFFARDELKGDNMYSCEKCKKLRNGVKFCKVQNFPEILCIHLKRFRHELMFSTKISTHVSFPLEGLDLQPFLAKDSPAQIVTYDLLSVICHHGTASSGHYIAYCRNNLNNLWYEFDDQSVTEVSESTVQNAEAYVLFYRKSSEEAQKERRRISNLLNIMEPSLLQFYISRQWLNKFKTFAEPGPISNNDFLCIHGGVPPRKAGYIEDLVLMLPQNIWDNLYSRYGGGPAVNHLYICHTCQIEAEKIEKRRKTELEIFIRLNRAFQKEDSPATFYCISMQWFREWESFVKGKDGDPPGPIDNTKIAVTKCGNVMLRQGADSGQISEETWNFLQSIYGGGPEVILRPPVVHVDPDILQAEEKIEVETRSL
Sequence of UniProt Q13336 (whole entry, looked up): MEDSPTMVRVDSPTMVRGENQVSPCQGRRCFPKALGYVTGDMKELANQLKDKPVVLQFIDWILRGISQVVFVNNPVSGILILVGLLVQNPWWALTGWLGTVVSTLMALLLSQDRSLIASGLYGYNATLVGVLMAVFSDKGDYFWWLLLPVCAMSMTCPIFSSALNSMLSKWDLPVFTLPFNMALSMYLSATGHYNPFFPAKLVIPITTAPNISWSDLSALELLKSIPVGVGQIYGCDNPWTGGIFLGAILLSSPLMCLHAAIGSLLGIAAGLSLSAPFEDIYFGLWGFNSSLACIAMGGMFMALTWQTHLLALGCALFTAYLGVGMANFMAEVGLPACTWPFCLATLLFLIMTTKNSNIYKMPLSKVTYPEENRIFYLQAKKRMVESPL
Sequence of UniProt P39146 (whole entry, unmodified, looked up): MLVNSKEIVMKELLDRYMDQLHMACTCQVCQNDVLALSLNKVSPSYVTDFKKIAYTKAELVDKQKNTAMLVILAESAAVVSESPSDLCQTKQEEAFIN

NS(=O)(=O)c1nnc(NC(=O)C2CCCC3(CCCCC3)C2)s1 (stereo not drawn) gave a Ki of 0.448 µM (Enterococcus faecium γ-carbonic anhydrase; CO2 hydration, inhibitor, stopped-flow kinetics).
Cc1ccccc1-c1ccc([C@H]2[C@@H](CO)N3CCCCN(C(=O)NC4CCCC4)C[C@H]23)cc1 has an EC50 of 0.88 µM (IDE; enzyme activity, inhibitor, fluorogenic kinetic; added: Mca-RPPGFSAFK(Dnp)-OH substrate).
With CC(C)(NCCc1ccc(C(F)(F)F)c(Cl)c1)c1cccc(NC2=CC(=O)N(C3CCC(=O)NC3=O)C2=O)c1 (stereo not drawn) the DC50 was 0.01 ± 0.001 µM (Cereblon/Ikaros; degrader; human cells).
The EC50 of Cc1ccccc1-c1ccc([C@H]2[C@@H](CO)N3CCCCN(C(=O)c4cccnc4)C[C@H]23)cc1 is reported as 3.1 µM (IDE; enzyme activity, inhibitor, fluorogenic kinetic; added: Mca-RPPGFSAFK(Dnp)-OH substrate).
For NC(=O)CNCCS(=O)(=O)O, Ki read “no effect” (Urea transporter 1 (Homo sapiens, UniProt Q13336); urea transport).
With CC1(C(=O)Nc2nnc(S(N)(=O)=O)s2)COC1 the Ki was 0.328 µM (Enterococcus faecium γ-carbonic anhydrase; CO2 hydration, inhibitor, stopped-flow kinetics).
The EC50 of Cc1ccccc1S(=O)(=O)N1CCCCN2[C@H](CO)[C@@H](c3ccc(-c4cccc(F)c4)cc3)[C@@H]2C1 is reported as 1.2 µM (IDE; enzyme activity, inhibitor, fluorescence kinetic; added: Mca-RPPGFSAFK(Dnp)-OH substrate).
The DC50 of O=C1CCC(N2C(=O)C=C(Nc3cccc(C4CCN(CCc5ccc(C(F)(F)F)c(Cl)c5)CC4)c3)C2=O)C(=O)N1 (stereo not drawn) is reported as 0.9 ± 0.25 µM (Cereblon/Ikaros; degrader, HiBiT luminescence, item: endogenous HiBiT-tagged protein).
With O=C(O)CCc1ccccc1 the Kd was > 1000 µM (USP33 ZnF-UBD domain).
Cc1ccccc1-c1ccc([C@H]2[C@@H](CO)N3CCCCN(Cc4cccnc4)C[C@H]23)cc1 has an EC50 of 4.8 µM (IDE; enzyme activity, inhibitor, fluorogenic kinetic; added: Mca-RPPGFSAFK(Dnp)-OH substrate).
Nc1nc2c(ncn2[C@@H]2O[C@@H]3CO[P@](=O)(O)O[C@H]4[C@@H](O)[C@H](n5cnc6c(=O)[nH]c(N)nc65)O[C@@H]4CO[P@](=O)(O)O[C@H]3[C@H]2O)c(=O)[nH]1 has a Kd of 0.45 ± 0.1 µM (Competence protein ComFB (comFB, Bacillus subtilis, UniProt P39146, K41A)).
With NS(=O)(=O)c1cnc(NC(=O)CCC2CCCCC2)s1 the Ki was 1.36 µM (Enterococcus faecium γ-carbonic anhydrase; CO2 hydration, inhibitor, stopped-flow kinetics).
O=C1CCC(N2Cc3cc(NC(=O)C4CCCCC4)ccc3C2=O)C(=O)N1 (stereo not drawn) gave a DC50 of > 10 µM (Cereblon/Ikaros; degrader, live-cell HiBiT kinetic; Jurkat Ikaros-HiBiT LgBiT).
The IC50 of Cc1cnn(Cc2ccc(Cn3cc(C(=O)NCc4ccc(CN)cc4)cn3)cc2)c1 is reported as > 40 µM (Prothrombin (F2, Homo sapiens, UniProt P00734)).
With N#Cc1c2n(c3c(=O)n(CC(=O)O)cnc13)CCCC2 the Kd was > 1000 µM (USP33 ZnF-UBD domain).
With NS(=O)(=O)c1nnc(NC(=O)CCC2CC3CCC2C3)s1 (stereo not drawn) the Ki was 0.267 µM (Enterococcus faecium γ-carbonic anhydrase; CO2 hydration, inhibitor, stopped-flow kinetics).
O=C(O)CCc1ccccc1OCc1ccccn1 gave a Kd of > 1000 µM (USP33 ZnF-UBD domain).
The EC50 of Cc1ccccc1-c1ccc([C@H]2[C@@H](CO)N3CCCCN(C(=O)Nc4cccc(F)c4)C[C@@H]23)cc1 is reported as 3.8 µM (IDE; enzyme activity, inhibitor, fluorogenic kinetic; added: Mca-RPPGFSAFK(Dnp)-OH substrate).

A few entries again:
NS(=O)(=O)c1nnc(NC(=O)C2CCCC3(CCCCC3)C2)s1 (stereo not drawn) gave a Ki of 0.448 µM (Enterococcus faecium γ-carbonic anhydrase; CO2 hydration, inhibitor, stopped-flow kinetics).
Cc1ccccc1-c1ccc([C@H]2[C@@H](CO)N3CCCCN(C(=O)NC4CCCC4)C[C@H]23)cc1 has an EC50 of 0.88 µM (IDE; enzyme activity, inhibitor, fluorogenic kinetic; added: Mca-RPPGFSAFK(Dnp)-OH substrate).
